Measurements from different studies.
Protocols differ between the studies behind these lines. ± gives the spread as reported.
Target: Aurora kinase B (AURKB, Homo sapiens, UniProt Q96GD4)
Sequence of UniProt Q96GD4 (whole entry, looked up): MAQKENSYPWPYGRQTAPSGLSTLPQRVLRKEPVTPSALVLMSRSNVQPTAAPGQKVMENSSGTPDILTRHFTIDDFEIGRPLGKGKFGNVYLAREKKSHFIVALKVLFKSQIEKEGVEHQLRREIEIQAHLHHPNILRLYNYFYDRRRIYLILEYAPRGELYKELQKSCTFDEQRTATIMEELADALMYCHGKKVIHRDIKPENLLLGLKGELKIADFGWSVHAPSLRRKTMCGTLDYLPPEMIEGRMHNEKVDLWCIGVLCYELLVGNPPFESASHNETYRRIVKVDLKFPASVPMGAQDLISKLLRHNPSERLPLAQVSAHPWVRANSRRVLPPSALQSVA

`C=CC(=O)N1CCC[C@@H](n2nc(-c3ccc(Oc4ccccc4)cc3)c3c(N)ncnc32)C1` gave a remaining activity of 78.2 ± 0.9% (kinase activity, inhibitor, HotSpot radiometric; 100 nM, added: ATP 10 µM).
The degradation of `Cc1ncsc1-c1ccc(CNC(=O)[C@@H]2C[C@@H](O)CN2C(=O)[C@@H](NC(=O)CCCCCCCCC(=O)N(CCO)CCCOc2ccc3c(Nc4cc(CC(=O)Nc5cccc(F)c5)[nH]n4)ncnc3c2)C(C)(C)C)cc1` is reported as greater than 70% (degrader, western blot; PC-3 cells; 1 µM, 24 h).
For `COc1ccc(F)cc1C(=O)NCc1ccc(-c2nn([C@@H](C)C(F)(F)F)c(N)c2C(N)=O)cc1`, the remaining activity was 87.1 ± 1.6% (1000 nM, added: ATP at Km).
For `Cc1cc(-c2ccnc3[nH]cc(F)c23)cc(F)c1[C@@]1(O)[C@H](C)CN(C2CCS(=O)(=O)CC2)C[C@@H]1C`, “probe labelling inhibition” read 41.4% (ATP/ADP probe binding, KiNativ; HEK293T lysate; 1 µM, Lys1 peptide).
`Cc1ncsc1-c1ccc([C@H](C)NC(=O)[C@@H]2C[C@@H](O)CN2C(=O)[C@@H](NC(=O)CCCCCCCCC(=O)N(CCO)CCCOc2ccc3c(Nc4cc(CC(=O)Nc5cccc(F)c5)[nH]n4)ncnc3c2)C(C)(C)C)cc1` has a degradation of greater than 60% (degrader, Western blot; K562; 1 µM, 24 h).
For `Cc1cc(-c2ccnc3[nH]cc(F)c23)cc(F)c1[C@@]1(O)[C@H](C)CN(C(=O)CN)C[C@@H]1C`, “probe labelling inhibition” read -25.7% (ATP/ADP probe binding, KiNativ; HEK293T lysate; 0.1 µM, Lys1 peptide).
The remaining activity of `C=CC(=O)N1CCC[C@@H](n2nc(-c3ccc(Oc4ccccc4)cc3)c3c(N)ncnc32)C1` is reported as 153% (0.1 µM).
`Cc1cc(Nc2cc(N3CCN(C)CC3)nc(Sc3ccc(NC(=O)C4CC4)cc3)n2)[nH]n1` has a remaining activity of 4% (kinase activity; 0.03 µM; relative to: control).
`C=CC(=O)N1CCC([C@@H]2CCNc3c(C(N)=O)c(-c4ccc(Oc5ccccc5)cc4)nn32)CC1` has a remaining activity of 101 ± 6.2% (kinase activity, inhibitor, HotSpot radiometric; 100 nM, added: ATP 10 µM).
For `COCCNc1nc2ccc(C#CC3(O)CCCCC3)cc2n1-c1ccnc(N)n1`, “remaining kinase activity” read 4.7% (enzyme activity, inhibitor, Z'-LYTE; 1 µM; relative to: no-inhibitor control).
